Published values from different studies.
Parts stem from different laboratories: compare values within a part only.
UniProt Q9HBH9, sequence (whole entry, looked up): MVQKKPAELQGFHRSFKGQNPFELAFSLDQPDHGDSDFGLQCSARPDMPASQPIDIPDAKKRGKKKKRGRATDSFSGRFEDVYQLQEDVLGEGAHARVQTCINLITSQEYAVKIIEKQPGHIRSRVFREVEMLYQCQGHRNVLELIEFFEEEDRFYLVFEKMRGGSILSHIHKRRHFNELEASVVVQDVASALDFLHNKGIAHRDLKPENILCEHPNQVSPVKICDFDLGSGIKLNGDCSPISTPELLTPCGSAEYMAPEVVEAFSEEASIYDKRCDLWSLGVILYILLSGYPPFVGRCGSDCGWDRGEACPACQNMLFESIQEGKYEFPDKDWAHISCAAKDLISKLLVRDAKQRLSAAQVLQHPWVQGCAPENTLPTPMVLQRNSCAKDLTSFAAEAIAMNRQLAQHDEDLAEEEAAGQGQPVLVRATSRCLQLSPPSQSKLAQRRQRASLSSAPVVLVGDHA
UniProt Q86UX6, sequence (whole entry, looked up): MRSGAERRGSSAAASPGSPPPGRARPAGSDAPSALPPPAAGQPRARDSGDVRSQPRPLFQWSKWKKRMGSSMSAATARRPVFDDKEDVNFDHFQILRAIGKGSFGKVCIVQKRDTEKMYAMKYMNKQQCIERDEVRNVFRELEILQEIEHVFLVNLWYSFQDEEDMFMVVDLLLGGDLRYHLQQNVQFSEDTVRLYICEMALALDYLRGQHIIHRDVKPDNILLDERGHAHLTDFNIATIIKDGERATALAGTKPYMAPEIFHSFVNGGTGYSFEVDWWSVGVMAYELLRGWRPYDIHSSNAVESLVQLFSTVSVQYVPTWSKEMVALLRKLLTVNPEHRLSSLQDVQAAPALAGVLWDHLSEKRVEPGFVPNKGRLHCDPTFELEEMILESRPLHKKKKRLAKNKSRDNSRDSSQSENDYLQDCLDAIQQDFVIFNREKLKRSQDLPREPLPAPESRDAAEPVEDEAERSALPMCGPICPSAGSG
UniProt P29597, sequence (whole entry, looked up): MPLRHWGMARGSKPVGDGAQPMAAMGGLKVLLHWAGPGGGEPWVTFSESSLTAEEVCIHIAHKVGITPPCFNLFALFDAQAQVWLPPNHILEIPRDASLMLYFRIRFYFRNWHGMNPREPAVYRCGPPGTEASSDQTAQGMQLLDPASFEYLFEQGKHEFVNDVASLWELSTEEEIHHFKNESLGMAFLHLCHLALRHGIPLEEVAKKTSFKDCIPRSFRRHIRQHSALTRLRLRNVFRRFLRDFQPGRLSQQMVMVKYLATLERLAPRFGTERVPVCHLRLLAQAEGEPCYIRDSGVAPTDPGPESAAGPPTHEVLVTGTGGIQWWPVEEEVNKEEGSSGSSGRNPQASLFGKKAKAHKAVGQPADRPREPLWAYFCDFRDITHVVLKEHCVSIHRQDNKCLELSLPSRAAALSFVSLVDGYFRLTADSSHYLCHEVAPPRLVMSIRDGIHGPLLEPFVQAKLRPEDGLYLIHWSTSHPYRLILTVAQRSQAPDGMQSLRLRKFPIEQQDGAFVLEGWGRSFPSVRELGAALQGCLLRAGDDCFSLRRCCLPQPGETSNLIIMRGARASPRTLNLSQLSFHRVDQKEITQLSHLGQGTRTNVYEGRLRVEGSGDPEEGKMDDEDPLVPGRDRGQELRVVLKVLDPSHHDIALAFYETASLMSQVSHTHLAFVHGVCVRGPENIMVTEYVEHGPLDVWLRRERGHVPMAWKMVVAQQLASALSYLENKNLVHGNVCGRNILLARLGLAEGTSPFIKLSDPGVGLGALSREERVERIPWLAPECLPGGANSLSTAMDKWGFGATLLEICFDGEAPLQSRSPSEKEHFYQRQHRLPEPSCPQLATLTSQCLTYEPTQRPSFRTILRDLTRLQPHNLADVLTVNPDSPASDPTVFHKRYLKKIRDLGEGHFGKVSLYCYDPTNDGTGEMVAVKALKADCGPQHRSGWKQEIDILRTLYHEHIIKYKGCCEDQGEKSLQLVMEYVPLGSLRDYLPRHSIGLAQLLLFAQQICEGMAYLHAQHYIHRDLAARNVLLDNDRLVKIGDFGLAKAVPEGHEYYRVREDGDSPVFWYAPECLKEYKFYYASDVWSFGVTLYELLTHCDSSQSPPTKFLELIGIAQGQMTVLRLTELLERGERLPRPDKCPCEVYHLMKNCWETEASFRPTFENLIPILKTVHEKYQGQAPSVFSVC
UniProt Q2M2I8, sequence (whole entry, looked up): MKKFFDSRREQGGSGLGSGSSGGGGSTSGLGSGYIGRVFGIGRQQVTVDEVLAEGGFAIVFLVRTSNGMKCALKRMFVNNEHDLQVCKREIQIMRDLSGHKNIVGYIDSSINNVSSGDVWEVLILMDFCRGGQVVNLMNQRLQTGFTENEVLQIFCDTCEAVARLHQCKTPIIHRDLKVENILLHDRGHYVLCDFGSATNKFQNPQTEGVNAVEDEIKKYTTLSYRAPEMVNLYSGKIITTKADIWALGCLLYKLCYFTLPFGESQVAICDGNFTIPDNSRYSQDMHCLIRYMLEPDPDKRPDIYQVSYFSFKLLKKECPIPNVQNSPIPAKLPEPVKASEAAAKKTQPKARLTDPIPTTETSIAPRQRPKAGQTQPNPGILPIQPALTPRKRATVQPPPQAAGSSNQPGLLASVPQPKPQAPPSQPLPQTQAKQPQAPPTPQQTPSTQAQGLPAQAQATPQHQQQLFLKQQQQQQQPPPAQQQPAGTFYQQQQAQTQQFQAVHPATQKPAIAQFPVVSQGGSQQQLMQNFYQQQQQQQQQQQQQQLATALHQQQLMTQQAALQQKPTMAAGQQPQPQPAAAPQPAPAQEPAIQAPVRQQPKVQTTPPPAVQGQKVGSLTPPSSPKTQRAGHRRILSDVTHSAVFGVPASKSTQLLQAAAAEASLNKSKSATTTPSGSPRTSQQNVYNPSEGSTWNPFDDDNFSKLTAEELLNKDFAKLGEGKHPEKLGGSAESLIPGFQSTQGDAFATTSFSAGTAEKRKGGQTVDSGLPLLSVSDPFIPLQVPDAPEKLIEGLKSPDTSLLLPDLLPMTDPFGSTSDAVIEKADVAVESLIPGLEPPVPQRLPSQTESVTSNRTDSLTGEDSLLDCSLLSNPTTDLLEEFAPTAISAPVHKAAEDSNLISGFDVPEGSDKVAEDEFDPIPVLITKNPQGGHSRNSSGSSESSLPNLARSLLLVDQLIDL
UniProt O00238, sequence (whole entry, looked up): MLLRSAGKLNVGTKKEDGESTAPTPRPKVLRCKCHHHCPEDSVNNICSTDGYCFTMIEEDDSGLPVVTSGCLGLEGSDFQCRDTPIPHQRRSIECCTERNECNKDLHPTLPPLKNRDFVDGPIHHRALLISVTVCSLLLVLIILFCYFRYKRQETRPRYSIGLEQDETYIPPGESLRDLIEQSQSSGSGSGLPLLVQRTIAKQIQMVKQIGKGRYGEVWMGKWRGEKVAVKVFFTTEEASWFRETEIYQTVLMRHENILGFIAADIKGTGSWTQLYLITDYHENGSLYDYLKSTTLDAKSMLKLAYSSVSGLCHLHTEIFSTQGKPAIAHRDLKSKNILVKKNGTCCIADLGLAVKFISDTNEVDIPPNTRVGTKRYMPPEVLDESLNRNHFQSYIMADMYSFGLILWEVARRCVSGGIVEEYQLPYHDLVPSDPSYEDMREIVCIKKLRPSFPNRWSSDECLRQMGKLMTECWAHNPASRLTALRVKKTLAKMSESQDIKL

Block 1 — read-out: enzyme activity; mode: inhibitor; tested at: 0.5 µM; baseline: control
Target: Calcium/calmodulin-dependent protein kinase type 1G (CAMK1G, Homo sapiens, UniProt Q96NX5)
UniProt Q96NX5, sequence (whole entry, looked up): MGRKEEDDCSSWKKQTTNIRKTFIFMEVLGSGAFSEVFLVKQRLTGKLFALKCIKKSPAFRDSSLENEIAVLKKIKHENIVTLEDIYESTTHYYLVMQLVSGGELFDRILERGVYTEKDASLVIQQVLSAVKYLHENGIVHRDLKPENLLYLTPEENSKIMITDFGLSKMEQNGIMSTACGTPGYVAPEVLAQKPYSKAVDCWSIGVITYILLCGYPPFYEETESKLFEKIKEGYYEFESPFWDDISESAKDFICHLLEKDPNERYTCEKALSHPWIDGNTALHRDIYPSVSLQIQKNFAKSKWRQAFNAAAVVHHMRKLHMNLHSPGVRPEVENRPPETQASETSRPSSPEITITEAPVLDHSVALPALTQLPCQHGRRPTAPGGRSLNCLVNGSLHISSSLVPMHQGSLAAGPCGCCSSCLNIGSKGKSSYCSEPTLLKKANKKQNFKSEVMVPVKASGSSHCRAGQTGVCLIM
| Compound | remaining activity [%] |
| --- | --- |
| CN1CCN(c2ccc3nc(-c4c(N)c5c(F)cccc5[nH]c4=O)[nH]c3c2)CC1 | 100 |
| c1ccc2c(-c3ccncc3)c[nH]c2c1 | 99 |
| COc1ccc(COc2ccc(Cc3cnc(N)nc3N)cc2OC)cc1 | 98.3 |
| O=C(O)/C=C/c1cc(Br)c(Br)c(Br)c1Br | 94.1 |
| NC(=O)c1ccc(-c2nc(-c3ccc4c(c3)OCCO4)c(-c3ccccn3)[nH]2)cc1 | 96.6 |
| Cc1ccc(S(=O)(=O)/C=C/C#N)cc1 | 99.9 |
| CCCNC(=O)Nc1ccc(Oc2ncnc3cc(OC)c(OC)cc23)cc1Cl | 103 |
| O=C1c2ccccc2-c2nc3nnnn3nc21 | 28.5 |
| O=C1NC(=O)c2c1c1c3ccccc3[nH]c1c1[nH]c3cc(Br)ccc3c21 | 94.5 |
| NC(=O)c1cccc(-c2cc(Nc3ccc(OC(F)(F)F)cc3)ncn2)c1 | 98.1 |
| COc1cccc(-c2cc(=O)c3ccccc3o2)c1N | 96.5 |
| O=C1NC(=O)c2c1c1c3ccccc3[nH]c1n1cncc21 | 94.7 |
| O=C1NC(=O)/C(=C/c2ccc3c(c2)OC(F)(F)O3)S1 | 107 |
| CNc1cc2c(Nc3cccc(Br)c3)ncnc2cn1 | 97.9 |
| O=c1cc(N2CCOCC2)oc2c(-c3ccccc3)cccc12 | 93.8 |
| CN(C)S(=O)(=O)c1ccc2c(c1)/C(=C/c1cc3c([nH]1)CCCC3)C(=O)N2 | 97.1 |
| FC(F)(F)c1ccc(/C=C/c2nc(COc3ccc(CCCCn4ccnn4)cc3)co2)cc1 | 95 |
| CCCCc1c(-c2ccc(OC)cc2)[nH]c2nccnc12 | 102 |
| COc1ccc2c(c1)c(C1=C(c3c[nH]c4ccccc34)C(=O)NC1=O)cn2CCCN(C)C | 95 |
| CCN(CC)CCCCN1c2ccccc2Oc2ccc(Cl)cc21 | 99.2 |
| O=C1Cc2c([nH]c3ccc(Br)cc23)-c2ccccc2N1 | 97.4 |
| CCCCc1c(-c2ccc(O)cc2)[nH]c2nccnc12 | 104 |
| O=C(c1ccccc1)c1ccc(N2CCOCC2)cc1O | 96.1 |
| CC(C)n1cnc2c(Nc3cccc(Cl)c3)nc(NCCO)nc21 | 98.7 |
| O=C1Nc2ccc(Br)cc2/C1=C/c1cc2c([nH]1)CCCC2 | 103 |

Block 2 — tested at: 1 µM
Structure (SMILES): Cc1c(NC(=O)c2cc(C(N)=O)nc3cc(F)ccc23)c(C(F)(F)F)nn1Cc1ccc(C(C)(C)C)cc1
| target | read-out | technique | remaining binding [%] |
| --- | --- | --- | --- |
| CDK13 (Homo sapiens, UniProt Q14004) | cell-free assay | competition with immobilised ligand | 100 |
| AAK1 (Homo sapiens, UniProt Q2M2I8) | binding |  | 83 |
| DYRK1B (Homo sapiens, UniProt Q9Y463) | cell-free assay | competition with immobilised ligand | 81 |
| Ribosomal protein S6 kinase alpha-2, N-terminal kinase domain (RPS6KA2, Homo sapiens, UniProt Q15349) | cell-free assay | competition with immobilised ligand | 100 |
| BMPR1B (Homo sapiens, UniProt O00238) | cell-free assay | competition with immobilised ligand | 82 |
| TAOK3 (Homo sapiens, UniProt Q9H2K8) | cell-free assay | competition with immobilised ligand | 45 |
| Non-receptor tyrosine-protein kinase TYK2, JH1 (TYK2, Homo sapiens, UniProt P29597) | cell-free assay | competition with immobilised ligand | 100 |
| STK36 (Homo sapiens, UniProt Q9NRP7) | cell-free assay | competition with immobilised ligand | 97 |
| STK32C (Homo sapiens, UniProt Q86UX6) | cell-free assay | competition with immobilised ligand | 100 |
| MKNK2 (Homo sapiens, UniProt Q9HBH9) | cell-free assay | competition with immobilised ligand | 100 |

Block 3 — cell line: HaCaT; tested at: 100 µM; time: 36 h
| SMILES | viability [%] |
| --- | --- |
| O=C(C1CCCCC1)N1CC(=O)N2CCc3ccccc3C2C1 (centres unmarked) | 94.9 |
| O=C(CCNNC(=O)c1ccncc1)NCc1ccccc1 | 99.6 |
| N#CCC(C1CCCC1)n1cc(-c2ncnc3[nH]ccc23)cn1 (centres unmarked) | 13.2 |
| COc1cc(Cc2cnc(N)nc2N)cc(OC)c1OC | 69.5 |
| CCCSc1nc(N[C@@H]2C[C@H]2c2ccc(F)c(F)c2)c2nnn([C@@H]3C[C@H](OCCO)[C@@H](O)[C@H]3O)c2n1 | 4.83 |
| CNCCCN1c2ccccc2CCc2ccccc21 | 5.02 |
| Clc1ccc(C(c2ccccc2Cl)C(Cl)Cl)cc1 (centres unmarked) | 6.28 |

Block 4 — technique: PRP chromatography; setting: linear fit, 1 mL
| SMILES | logD 1,9-decadiene/water [log units] |
| --- | --- |
| CC(C)C[C@@H]1NC(=O)[C@H](C)NC(=O)[C@H](Cc2cscn2)NC(=O)[C@H](CC(C)C)NC(=O)[C@H](C(C)C)NC(=O)[C@H](CC(C)C)NC(=O)[C@@H](CC(C)C)NC1=O | -1.82 |
| CC(C)C[C@@H]1NC(=O)[C@H](C)NC(=O)[C@@H](CC(C)C)NC(=O)[C@H](C)NC(=O)[C@H](C(C)C)NC(=O)[C@H](CC(C)C)NC(=O)[C@@H](CC(C)C)NC1=O | -0.77 |
| CC(C)C[C@@H]1NC(=O)[C@H](CC(C)C)NC(=O)[C@H](CC(C)C)NC(=O)[C@H](C(C)C)NC(=O)[C@H](C)NC(=O)[C@H](CCC(=O)N2CCCC2)NC(=O)[C@H](C)NC1=O | -1.84 |
| CC(C)C[C@@H]1NC(=O)[C@@H](C)NC(=O)[C@H](CCC(=O)N2CCCC2)NC(=O)[C@@H](C(C)C)NC(=O)[C@H](C(C)C)NC(=O)[C@H](CC(C)C)NC(=O)[C@@H](CC(C)C)NC1=O | -0.358 |
| CC(C)C[C@@H]1NC(=O)[C@@H](C)NC(=O)[C@@H](CC(C)C)NC(=O)[C@@H](CC(C)C)NC(=O)[C@H](C)NC(=O)[C@H](CC(C)C)NC(=O)[C@@H](CC(C)C)NC1=O | -0.0786 |
| CC(C)C[C@@H]1NC(=O)[C@H](Cc2cscn2)NC(=O)[C@@H](CC(C)C)NC(=O)[C@@H](CCC(=O)N2CCCC2)NC(=O)[C@H](CC(C)C)NC(=O)[C@@H](CC(C)C)NC(=O)[C@H](CC(C)C)NC1=O | 0.345 |
| CC(C)C[C@@H]1NC(=O)[C@H](Cc2cscn2)NC(=O)[C@H](Cc2cscn2)NC(=O)[C@@H](CC(C)C)NC(=O)[C@@H](CCC(=O)N2CCCC2)NC(=O)[C@H](CC(C)C)NC(=O)[C@@H](CC(C)C)NC1=O | -0.682 |

Block 5 — technique: Phase 2a trial; species: human, idiopathic pulmonary fibrosis
SMILES: CC(C)n1cnc(-c2ccc(F)cc2)c1-c1ncc(C(=O)Nc2ccc(N3CCN(C)CC3)cc2)[nH]1
| item | dose | setting | patients with adverse event [%] |
| --- | --- | --- | --- |
| blood creatinine increased | 30 mg once daily | grade 5 | 0 |
| blood glucose increased | all compound arms total | grade 2 | 0 |
| hypercholesterolaemia | all compound arms total | grade 3 | 0 |
| haemoptysis | 30 mg once daily | grade 2 | 0 |
| haemoptysis | 60 mg once daily | grade 4 | 0 |
| hypercholesterolaemia | 60 mg once daily | grade 3 | 0 |
| hypocalcaemia | all compound arms total | grade 3 | 0 |

Repeated from above (block 1):
| Compound | remaining activity [%] |
| --- | --- |
| CC(C)n1cnc2c(Nc3cccc(Cl)c3)nc(NCCO)nc21 | 98.7 |
| CCCCc1c(-c2ccc(OC)cc2)[nH]c2nccnc12 | 102 |
| COc1ccc2c(c1)c(C1=C(c3c[nH]c4ccccc34)C(=O)NC1=O)cn2CCCN(C)C | 95 |
| O=C1NC(=O)c2c1c1c3ccccc3[nH]c1n1cncc21 | 94.7 |
| NC(=O)c1ccc(-c2nc(-c3ccc4c(c3)OCCO4)c(-c3ccccn3)[nH]2)cc1 | 96.6 |
| CNc1cc2c(Nc3cccc(Br)c3)ncnc2cn1 | 97.9 |
